Measured values gathered from unrelated publications.
Compare with care: the assays were run in different laboratories. Values joined by “and” are separate records of one study, mostly repeats; a detail may differ. ± gives the spread as reported.
Chain of UniProt P29320 (whole entry, looked up): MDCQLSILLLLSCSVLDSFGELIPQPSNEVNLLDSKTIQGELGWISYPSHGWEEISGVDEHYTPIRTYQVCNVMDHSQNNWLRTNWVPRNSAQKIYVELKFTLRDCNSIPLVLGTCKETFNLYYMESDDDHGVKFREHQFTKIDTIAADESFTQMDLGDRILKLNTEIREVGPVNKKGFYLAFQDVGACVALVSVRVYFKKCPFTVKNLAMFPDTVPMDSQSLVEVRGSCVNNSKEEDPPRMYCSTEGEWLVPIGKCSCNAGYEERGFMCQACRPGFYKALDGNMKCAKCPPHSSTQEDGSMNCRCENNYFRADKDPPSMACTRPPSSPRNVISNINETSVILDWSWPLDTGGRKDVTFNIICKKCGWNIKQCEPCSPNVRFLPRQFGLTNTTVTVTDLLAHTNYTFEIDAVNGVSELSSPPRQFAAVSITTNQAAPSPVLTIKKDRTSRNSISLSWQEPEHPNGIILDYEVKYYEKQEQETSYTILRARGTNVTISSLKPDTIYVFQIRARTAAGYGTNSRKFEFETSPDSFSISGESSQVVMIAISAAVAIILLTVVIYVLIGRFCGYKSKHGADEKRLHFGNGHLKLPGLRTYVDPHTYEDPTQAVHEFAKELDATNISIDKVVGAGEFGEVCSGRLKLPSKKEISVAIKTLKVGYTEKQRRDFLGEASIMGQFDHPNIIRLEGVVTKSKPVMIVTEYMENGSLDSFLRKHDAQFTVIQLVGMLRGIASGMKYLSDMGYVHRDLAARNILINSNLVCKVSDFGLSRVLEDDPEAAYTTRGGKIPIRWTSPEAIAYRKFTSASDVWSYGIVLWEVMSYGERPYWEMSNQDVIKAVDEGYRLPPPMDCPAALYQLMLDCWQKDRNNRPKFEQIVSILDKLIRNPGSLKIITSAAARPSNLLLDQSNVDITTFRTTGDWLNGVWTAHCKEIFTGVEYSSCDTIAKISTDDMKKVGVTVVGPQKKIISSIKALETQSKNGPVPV

SMILES	target or system	test	test system	setting	how to read	measurement	result
NC(=O)N/N=C/c1ccc(OCc2cccc(F)c2)cc1	IMR-32	refers to: GPX3	–	500 µg/mL, 24 h	higher = more activity	glutathione peroxidase activity (OD450)	0.159 a.u.
CC1CCC2C(C)C(OC(=O)CCC(=O)N3CCC(Nc4ccc(S(=O)(=O)NC(=O)c5ccc(N6CCN(CC7=C(c8ccc(Cl)cc8)CC(C)(C)CC7)CC6)cc5Oc5cnc6[nH]ccc6c5)cc4[N+](=O)[O-])CC3)OC3OC4(C)CCC1C32OO4 (stereo not drawn)	THP-1	annexin V/PI flow cytometry, refers to: annexin V-/PI-	–	0.8 µM, 24 h	–	viable cells	29.5%
Cc1cc(C(=O)Nc2nc3cccc(C)c3n2[C@H]2CCCCN(C(=O)/C=C/CN(C)C)C2)ccn1	Trypanosoma brucei	cell growth, Alamar Blue	2T1 overexpressing Tb927.10.10870	–	reference: parental 2T1	EC50 fold shift	1.19 fold and 0.53 fold
Cc1cc(Oc2nc(N3CC[C@@H](c4ccncc4)C3)ncc2F)[nH]n1	A673	cell proliferation	muscle cancer	–	–	IC50	> 100 µM
CC[C@H](C)[C@H](NC(=O)[C@H](C)NC(=O)CNC(=O)[C@H](Cc1ccccc1)NC(=O)[C@H](CC(N)=O)NC(=O)[C@H](CC(N)=O)NC(=O)[C@H](CO)NC(=O)[C@H](CO)NC(=O)[C@H](Cc1c[nH]cn1)NC(=O)[C@@H](NC(=O)[C@H](CC(C)C)NC(=O)[C@H](Cc1ccccc1)NC(=O)[C@H](CC(N)=O)NC(=O)[C@H](C)NC(=O)[C@H](CC(C)C)NC(=O)[C@H](CCCNC(=N)N)NC(=O)[C@H](CCC(N)=O)NC(=O)[C@@H](NC(=O)[C@H](C)NC(=O)[C@@H]1CSSC[C@H](NC(=O)[C@@H](N)CCCCN)C(=O)N[C@@H](CC(N)=O)C(=O)N[C@@H]([C@@H](C)O)C(=O)N[C@@H](C)C(=O)N[C@@H]([C@@H](C)O)C(=O)N1)[C@@H](C)O)C(C)C)C(=O)N[C@@H](CC(C)C)C(=O)N[C@@H](CO)C(=O)N[C@@H](CO)C(=O)N[C@H](C(=O)N[C@@H](CC(N)=O)C(=O)N[C@H](C(=O)NCC(=O)N[C@@H](CO)C(=O)N[C@@H](CC(N)=O)C(=O)N[C@H](C(=O)N[C@@H](Cc1ccc(O)cc1)C(N)=O)[C@@H](C)O)C(C)C)[C@@H](C)O	RIN-m5F	ELISA	–	24 h, pre-aggregated	reference: fresh amylin	nuclear content increase	5 fold
CS(C)(=O)=Nc1ccc(-c2ccc(-c3nc4cc(O[C@@H]5CO[C@H]6[C@@H]5OC[C@H]6O)[nH]c4cc3F)cc2)cc1	EPHA3 (Homo sapiens, UniProt P29320)	enzyme activity, inhibitor	–	10 µM	–	inhibition	-9%
CC(C)CC(O)(CC(C)C)c1cn(C(=O)N2CCCC2)nn1	mouse T-cells	SILAC proteomics, refers to: Oxsr1	–	1 nM, 6 h, single peptides, unit not given	reference: DMSO	protein level	1.04 and 1.11
CC(=O)NCSC[C@H](NC(=O)[C@@H]1CCCN1C(=O)[C@H](C)NC(=O)[C@@H](NC(=O)CNC(=O)[C@@H](NC(=O)[C@H](Cc1c[nH]c2ccccc12)NC(=O)[C@H](C)NC(=O)CNC(=O)[C@H](CO)NC(=O)[C@H](C)NC(=O)[C@@H]1CCCN1C(=O)[C@H](Cc1c[nH]c2ccccc12)NC(=O)[C@H](C)NC(=O)[C@H](C)NC(=O)[C@@H](N)Cc1ccc(O)cc1)[C@@H](C)O)[C@@H](C)O)C(=O)N[C@@H](CO)C(=O)N[C@@H](C)C(=O)NCC(=O)N[C@H](C(=O)NCCOCCOCCOCCOCCOCCOCCOCCOCCOCCOCCOCCOCCC(=O)N[C@@H](CS)C(N)=O)[C@@H](C)O	HCC461	phage binding	–	–	reference: targeting over control phage	selectivity ratio	3.4 ± 2
COc1ccccc1-c1ccncc1C(=O)Nc1nnc(OCc2ccc(Cl)cc2)s1	RPE-1 BRCA1 WT parental	–	–	2 µM, run 2	reference: untreated	colony survival	86.8%
O=C(C[Se]C(=O)c1ccccc1)Nc1cccc(C(F)(F)F)c1	NCI60 leukaemia subpanel	NCI60 five-dose screen	–	–	–	GI50	2.67 µM
CC(C)C12OC1C1OC13C1(C)CCC4=C(COC4=O)C1CC1OC13C2OC(=O)CCCOC1OC(CO)C(O)C(O)C1O (stereo not drawn)	primary prostate epithelial cells	cell viability, XTT	–	47 h	–	IC50	4.72 µM
COc1ccccc1-c1n[nH]c2nc(NC3CCN(C(=O)Cc4ccc(F)cc4F)CC3)ncc12	–	bead binding, competition bead pull-down, refers to: LINJ.29.1250	Leishmania donovani axenic amastigote extract	10 µM	reference: vehicle	relative abundance	0.92
COc1ccc2c(c1)c(CC(=O)[Se]CC(=O)Nc1cccc(C(F)(F)F)c1)c(C)n2C(=O)c1ccc(Cl)cc1	NCI60 leukaemia subpanel	NCI60 five-dose screen	–	–	–	CC50	10.8 µM
CC(C)[C@H](NC(=O)[C@H](CCCNC(=N)N)NC(=O)[C@@H]1CCCN1C(=O)[C@@H](NC(=O)[C@H](C)NC(=O)[C@H](Cc1ccc(O)cc1)NC(=O)[C@H](CCC(N)=O)NC(=O)[C@H](CCCCN)NC(=O)[C@H](CCCNC(=N)N)NC(=O)[C@@H]1CCCN1C(=O)[C@H](CCC(=O)O)NC(=O)[C@@H](NC(=O)[C@H](C)N)[C@@H](C)O)[C@@H](C)O)C(=O)N[C@@H](Cc1ccccc1)C(=O)N[C@@H](Cc1c[nH]c2ccccc12)C(=O)N[C@H](C(=O)N[C@@H](CC(=O)O)C(=O)N[C@@H](C)C(=O)N1CCC[C@H]1C(=O)NCC(=O)NCCOCCOCCOCCOCCOCCOCCOCCOCCOCCOCCOCCOCCC(=O)N[C@@H](CS)C(N)=O)[C@@H](C)O	MCF7 breast cancer	cell binding, phage binding, refers to: output/input phage	–	10 min, 37 °C	reference: control phage	selectivity ratio	4.2 ± 3
O=C(C[Se]C(=O)c1ccccc1Nc1cccc(C(F)(F)F)c1)Nc1cccc(C(F)(F)F)c1	NCI60 melanoma subpanel	cytotoxicity, inhibitor	–	five-dose	–	CC50	10.6 µM
CSCC[C@H](NC(=O)[C@@H](NC(=O)[C@H](CCC(N)=O)NC(=O)[C@H](CO)NC(=O)[C@@H](N)C(C)C)[C@@H](C)O)C(=O)N[C@@H](CCCNC(=N)N)C(=O)N[C@@H](CCC(N)=O)C(=O)N[C@H](C(=O)N[C@@H](C)C(=O)N[C@H](C(=O)N1CCC[C@H]1C(=O)N[C@@H](CC(C)C)C(=O)N[C@@H](CC(C)C)C(=O)N[C@@H](Cc1c[nH]c2ccccc12)C(=O)N[C@@H](Cc1ccccc1)C(=O)N[C@@H](Cc1c[nH]c2ccccc12)C(=O)N[C@H](C(=O)NCC(=O)N[C@@H](CO)C(=O)N[C@@H](CC(C)C)C(=O)NCCOCCOCCOCCOCCOCCOCCOCCOCCOCCOCCOCCOCCC(=O)N[C@@H](CS)C(N)=O)[C@@H](C)O)C(C)C)[C@@H](C)O	PC-9	phage binding	–	–	reference: targeting over control phage	selectivity ratio	1.9 ± 0.62
CC(C)(C)C(=O)OCOP(=O)(OCOC(=O)C(C)(C)C)C1CCCN(O)C1=O (stereo not drawn)	KM12	–	–	–	–	CC50	> 100 µM
O=C(O)c1ccc(-c2nc(-c3ccccc3Cl)c3sccn23)cc1	K562	flow cytometry	–	concentration not given	reference: cells	S phase cells	30.7% and 30.5% and 31.6%
CC(C)C[C@H](NC(=O)[C@H](CC(=O)O)NC(=O)CNC(=O)[C@@H](N)CCCNC(=N)N)C(=O)N[C@@H](C)C(=O)N[C@H](C(=O)N[C@@H](CC(C)C)C(=O)N[C@@H](CCCNC(=N)N)C(=O)N[C@@H](CCC(N)=O)C(=O)N[C@@H](CC(C)C)C(=O)N[C@@H](C)C(=O)N[C@@H](CCC(N)=O)C(=O)N[C@@H](CCC(=O)O)C(=O)N[C@@H](CC(=O)O)C(=O)NCC(=O)N[C@H](C(=O)N[C@H](C(=O)NCC(=O)N[C@H](C(=O)N[C@@H](CCCNC(=N)N)C(=O)NCCOCCOCCOCCOCCOCCOCCOCCOCCOCCOCCOCCOCCC(=O)N[C@@H](CS)C(N)=O)C(C)C)C(C)C)C(C)C)[C@@H](C)O	MCF7 breast cancer	cell binding, phage binding, refers to: output/input phage	–	10 min, 37 °C	reference: control phage	selectivity ratio	15 ± 3.8
CSCC[C@H](NC(=O)[C@H](CCC(=O)O)NC(=O)[C@H](CS)NC(=O)[C@H](Cc1ccccc1)NC(=O)[C@H](CC(N)=O)NC(=O)[C@@H]1CCCN1C(=O)[C@@H]1CCCN1C(=O)[C@H](CC(N)=O)NC(=O)[C@H](CC(C)C)NC(=O)[C@H](CCSC)NC(=O)[C@H](CC(C)C)NC(=O)[C@H](CS)NC(=O)[C@H](CCC(N)=O)NC(=O)CNC(=O)[C@H](Cc1ccc(O)cc1)NC(=O)[C@@H](NC(=O)[C@@H](NC(=O)[C@@H]1CCCN1C(=O)[C@@H](N)CS)C(C)C)[C@@H](C)O)C(=O)N[C@@H](CC(=O)O)C(=O)NCC(=O)N[C@@H](CCC(N)=O)C(=O)N[C@@H](CS)C(=O)N[C@@H](CCCCN)C(=O)O	RAW264.7	Western blot	–	concentration not given, 6 h pretreatment, together with: LPS 30 min	–	p-ERK/ERK ratio	0.61 ± 0.06
CC(C)Cc1ccc(C(C)C(=O)[Se]CC(=O)Nc2cccc(C(F)(F)F)c2)cc1 (stereo not drawn)	NCI60 leukaemia subpanel	NCI60 five-dose screen	–	–	–	CC50	10.4 µM
CN(C)[C@H]1C[C@@]23CC[C@@]4(O2)C(=CC[C@]2(C)[C@@H](c5ccc6ccncc6c5)CC[C@H]24)C=C3[C@@H](O)[C@@H]1O	MTOR (Homo sapiens, UniProt P42345)	–	–	0.1 µM	–	inhibition	-2.7%
CC(CO)C1CN2C(=O)[C@H](CC(=O)O)NC(=O)CC(CC3CC3)NC(=O)[C@H](CCC(=O)O)NC(=O)CNC(=O)[C@H]([C@@H](C)O)NC(=O)[C@H](CCC(=O)O)NC(=O)[C@@H]2C1(F)F (stereo partly drawn)	RAW264.7	ELISA	–	concentration not given, together with: LPS	–	TNF-alpha protein level	inhibited
NC(=S)N/N=C/c1ccc(OCc2cccc(F)c2)cc1	IMR-32	–	–	300 µg/mL, 24 h	higher = more activity	catalase activity (OD450)	0.22 a.u.
COc1ccccc1-c1n[nH]c2nc(N[C@H]3CC[C@H](NS(=O)(=O)CC(C)C)CC3)ncc12	–	bead binding, competition bead pull-down, refers to: LINJ.22.0350	Leishmania donovani extract	10 µM	reference: vehicle	relative abundance	0.95
N[C@H](C(=O)N1CCCC1)C1CCN(c2nccc3c(-c4ncc(Cl)cc4Cl)cccc23)CC1	human neutrophils	protein citrullination, inhibitor, flow cytometry, refers to: citrullinated proteins	–	316 nM, together with: ionomycin	–	inhibition	20.1% and 31% and 20.2% and 34.3%
O=C(C[Se]C(=O)c1ccco1)Nc1cccc(C(F)(F)F)c1	NCI60 melanoma subpanel	cell growth	–	10 µM, 48 h, one-dose	–	mean growth percent	-33.1%
Cc1cc(=O)oc2cc(OCCCCCC[Se]C#N)ccc12	T47D	cell growth or viability, SRB	–	–	–	GI50	3.1 µM
Cc1c(Cl)cccc1Nc1ccccc1C(=O)[Se]CC(=O)Nc1cccc(C(F)(F)F)c1	NCI60 melanoma subpanel	cytotoxicity, inhibitor	–	five-dose	–	CC50	6.08 µM
O=C1NC2(CC2)COc2ncc(F)cc2[C@H]2COCCN2c2ccn3ncc1c3n2	–	–	Sprague-Dawley rat, female, liver	oral, 20 mg/kg/day, 4 weeks, end of treatment	–	organ-to-brain weight ratio	584 ± 111%

Excerpt of the above:
SMILES	target or system	test	test system	setting	how to read	measurement	result
CC(C)CC(O)(CC(C)C)c1cn(C(=O)N2CCCC2)nn1	mouse T-cells	SILAC proteomics, refers to: Oxsr1	–	1 nM, 6 h, single peptides, unit not given	reference: DMSO	protein level	1.04 and 1.11
CC(=O)NCSC[C@H](NC(=O)[C@@H]1CCCN1C(=O)[C@H](C)NC(=O)[C@@H](NC(=O)CNC(=O)[C@@H](NC(=O)[C@H](Cc1c[nH]c2ccccc12)NC(=O)[C@H](C)NC(=O)CNC(=O)[C@H](CO)NC(=O)[C@H](C)NC(=O)[C@@H]1CCCN1C(=O)[C@H](Cc1c[nH]c2ccccc12)NC(=O)[C@H](C)NC(=O)[C@H](C)NC(=O)[C@@H](N)Cc1ccc(O)cc1)[C@@H](C)O)[C@@H](C)O)C(=O)N[C@@H](CO)C(=O)N[C@@H](C)C(=O)NCC(=O)N[C@H](C(=O)NCCOCCOCCOCCOCCOCCOCCOCCOCCOCCOCCOCCOCCC(=O)N[C@@H](CS)C(N)=O)[C@@H](C)O	HCC461	phage binding	–	–	reference: targeting over control phage	selectivity ratio	3.4 ± 2
COc1ccccc1-c1ccncc1C(=O)Nc1nnc(OCc2ccc(Cl)cc2)s1	RPE-1 BRCA1 WT parental	–	–	2 µM, run 2	reference: untreated	colony survival	86.8%
O=C(C[Se]C(=O)c1ccccc1)Nc1cccc(C(F)(F)F)c1	NCI60 leukaemia subpanel	NCI60 five-dose screen	–	–	–	GI50	2.67 µM
